Measured values collected from several papers.
Parts stem from different laboratories: compare values within a part only. Substitutions count along the parent as printed.

Set 1 — target: CCNA2, cyclin fold, Cln2 fusion (human); technique: yeast growth competition, sequencing; medium: yeast; setting: strong parent motif; reference: not given; reading: higher = stronger binding; starting sequence: viral docking peptide; PTARRRLLHDLDT
Change | normalised enrichment score
PTARRRLAHDLDT [L8A] | 0.851
PTARKRLLFDLDT [R5K H9F] | 6.13
PAARRRLLHDLDT [T2A] | 3.07
PTARKRLFHDLDT [R5K L8F] | 5.86
PTARRRLLHDLDA [T13A] | 3.63
PTARRALLHDLDT [R6A] | 3.25
PTARRRLLADLDT [H9A] | 3.95
PTARRRLLHALDT [D10A] | 1.82

Set 2 — technique: protein-binding microarray; form: double-stranded DNA, one strand shown; medium: in vitro; concentration: not given; reading: higher = stronger binding
Target: TATA-box-binding protein 1 (TBP1, Arabidopsis thaliana, UniProt P28147, residues 1-200, full length assumed)
Setting: k-mer, scored over probes, only values ≥0.25
Target sequence (chain): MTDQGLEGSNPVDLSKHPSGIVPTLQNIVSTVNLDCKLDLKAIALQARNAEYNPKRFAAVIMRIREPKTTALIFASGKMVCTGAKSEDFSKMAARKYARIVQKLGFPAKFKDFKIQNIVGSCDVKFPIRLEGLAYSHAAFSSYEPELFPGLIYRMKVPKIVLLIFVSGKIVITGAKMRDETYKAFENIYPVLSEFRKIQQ
Oligonucleotide | E-score
ATATGTG | 0.275
TAATTAA | 0.385
ATTTATG | 0.391
TAAAAGA | 0.355
CCTTTTA | 0.395
CATATAA | 0.443
GAGTATA | 0.384
TATACGA | 0.309

Set 3 — technique: RNAcompete; form: RNA; medium: in vitro; concentration: 20 nM; setting: 7-mer, probes averaged, single round; reference: mean of 7-mers; reading: higher = stronger binding
Target: PABPC1L2, full length, GST fusion (mouse, UniProt A0ABA7IW68)
Oligonucleotide | 7-mer Z-score
UCAAUUU | -0.162
UCAUCAG | -0.188
GAAGACU | -0.113
GACCACC | -0.0772
AUUCCUA | -0.193
UAACAGA | 0.276
ACACGGC | 0.211
AUUGUUC | -0.402

Set 4 — target: inorganic phosphate, free oxyanion; technique: microfluidic competitive inhibition; medium: in vitro, cell-free expressed; concentration: not given; reading: lower = stronger binding
Setting: derived from inhibition constants, unchanged parent 615000 nM
Starting sequence: PafA, mature enzyme, eGFP fusion (Elizabethkingia meningoseptica, UniProt Q9KJX5); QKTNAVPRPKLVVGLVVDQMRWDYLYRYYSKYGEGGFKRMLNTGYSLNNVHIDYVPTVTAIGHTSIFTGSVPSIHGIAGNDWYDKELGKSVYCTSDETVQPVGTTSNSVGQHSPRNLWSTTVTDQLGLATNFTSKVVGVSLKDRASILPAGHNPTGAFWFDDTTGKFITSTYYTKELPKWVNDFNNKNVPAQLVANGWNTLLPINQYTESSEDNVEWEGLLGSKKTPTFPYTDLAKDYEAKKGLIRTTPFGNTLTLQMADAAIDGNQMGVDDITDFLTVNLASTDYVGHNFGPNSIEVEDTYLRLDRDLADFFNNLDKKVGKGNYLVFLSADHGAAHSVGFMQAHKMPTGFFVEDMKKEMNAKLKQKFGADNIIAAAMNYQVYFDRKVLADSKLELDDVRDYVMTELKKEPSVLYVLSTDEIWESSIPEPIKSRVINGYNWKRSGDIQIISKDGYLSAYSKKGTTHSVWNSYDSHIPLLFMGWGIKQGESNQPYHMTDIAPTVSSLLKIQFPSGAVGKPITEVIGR
Change | phosphate dissociation constant
Y439G | 540 µM
T521V | 665 µM
L414G | 339 µM
N153G | 465 µM
D53V | 344 µM
N188G | 555 µM

For quick reference, copied from above (set 1):
Change | normalised enrichment score
PTARRRLAHDLDT [L8A] | 0.851
PTARKRLLFDLDT [R5K H9F] | 6.13
PAARRRLLHDLDT [T2A] | 3.07
PTARKRLFHDLDT [R5K L8F] | 5.86
